Measured values pooled from the literature.
A part holds a random share of what one study measured. Values joined by “and” are separate records of one study, mostly repeats; a detail may differ.
Sequence of UniProt Q9UM73 (whole entry, unmodified, looked up): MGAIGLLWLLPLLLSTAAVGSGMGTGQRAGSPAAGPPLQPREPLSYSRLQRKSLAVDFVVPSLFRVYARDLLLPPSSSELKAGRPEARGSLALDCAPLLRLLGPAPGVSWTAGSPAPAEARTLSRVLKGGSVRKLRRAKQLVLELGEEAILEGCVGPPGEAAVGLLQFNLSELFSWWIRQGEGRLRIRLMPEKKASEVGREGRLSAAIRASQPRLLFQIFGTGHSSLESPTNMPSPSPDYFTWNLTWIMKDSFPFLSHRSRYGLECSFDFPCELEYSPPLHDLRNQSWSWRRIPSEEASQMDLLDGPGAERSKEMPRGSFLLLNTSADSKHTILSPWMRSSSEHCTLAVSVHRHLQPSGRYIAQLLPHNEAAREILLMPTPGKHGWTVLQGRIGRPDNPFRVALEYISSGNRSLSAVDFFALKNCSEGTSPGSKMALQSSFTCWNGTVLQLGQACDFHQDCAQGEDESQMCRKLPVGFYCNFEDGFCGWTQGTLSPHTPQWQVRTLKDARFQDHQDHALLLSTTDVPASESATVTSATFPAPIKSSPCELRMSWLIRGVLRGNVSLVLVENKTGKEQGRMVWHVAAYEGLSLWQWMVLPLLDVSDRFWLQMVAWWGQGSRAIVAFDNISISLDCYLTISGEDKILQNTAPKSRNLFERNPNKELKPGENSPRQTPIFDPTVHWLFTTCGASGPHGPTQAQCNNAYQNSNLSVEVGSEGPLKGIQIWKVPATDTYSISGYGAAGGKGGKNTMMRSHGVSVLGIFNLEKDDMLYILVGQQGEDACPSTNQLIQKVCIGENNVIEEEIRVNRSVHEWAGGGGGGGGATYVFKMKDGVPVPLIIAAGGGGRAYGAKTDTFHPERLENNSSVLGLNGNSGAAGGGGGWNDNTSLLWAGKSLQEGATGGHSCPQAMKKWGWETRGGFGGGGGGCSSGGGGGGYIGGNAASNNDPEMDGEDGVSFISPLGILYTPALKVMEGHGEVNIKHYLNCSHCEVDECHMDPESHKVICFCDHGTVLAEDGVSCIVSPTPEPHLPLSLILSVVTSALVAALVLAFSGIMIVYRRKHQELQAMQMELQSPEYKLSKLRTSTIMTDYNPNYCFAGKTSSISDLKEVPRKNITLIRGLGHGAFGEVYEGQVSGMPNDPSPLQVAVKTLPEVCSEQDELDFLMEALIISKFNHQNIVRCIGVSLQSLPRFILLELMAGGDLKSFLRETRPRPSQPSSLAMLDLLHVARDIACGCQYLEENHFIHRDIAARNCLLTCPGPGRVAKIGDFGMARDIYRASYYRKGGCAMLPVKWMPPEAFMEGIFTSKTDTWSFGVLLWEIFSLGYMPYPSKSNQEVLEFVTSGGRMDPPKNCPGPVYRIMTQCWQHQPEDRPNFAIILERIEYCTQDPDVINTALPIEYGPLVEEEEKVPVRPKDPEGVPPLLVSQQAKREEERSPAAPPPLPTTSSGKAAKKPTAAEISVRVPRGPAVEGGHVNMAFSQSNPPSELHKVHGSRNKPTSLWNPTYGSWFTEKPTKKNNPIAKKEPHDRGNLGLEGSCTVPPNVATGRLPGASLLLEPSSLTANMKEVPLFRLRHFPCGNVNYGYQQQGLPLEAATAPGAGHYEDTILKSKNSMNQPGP

Sample 1 — organism: Arabidopsis thaliana; strain: Col-0; tested at: 3.125 µg/mL; setting: seed germination
Structure (SMILES)	root length
CC(C)(C)c1ccc(Oc2ccc3c(c2)OC(O)(C(=O)O)C(=O)N3Cc2ccccc2)cc1 (centres unmarked)	1.1 cm
O=C(O)C1(O)Oc2cc(F)ccc2N(Cc2ccccc2)C1=O (centres unmarked)	0.7 cm
O=C(O)C1(O)Oc2cc(Cl)ccc2N(Cc2ccccc2)C1=O (centres unmarked)	1.23 cm
CCN1C(=O)C(O)(C(=O)O)Oc2cc(F)ccc21 (centres unmarked)	1.06 cm
O=C(O)C1(O)Oc2ccccc2N(Cc2ccccc2)C1=O (centres unmarked)	1.23 cm
Cc1ccc2c(c1)OC(O)(C(=O)O)C(=O)N2Cc1ccccc1 (centres unmarked)	1.17 cm
O=C(O)C1(O)Oc2cc(Br)ccc2N(Cc2ccccc2)C1=O (centres unmarked)	1.17 cm
O=C(O)C1Oc2cc(F)ccc2N(Cc2ccccc2)C1=O (centres unmarked)	1.13 cm

Sample 2 — observed: hERG current; technique: manual patch clamp
SMILES: Cn1cc(-c2cccc(CN3CCC4(CC3)COc3c4ccc4c3CN([C@H]3CCC(=O)NC3=O)C4=O)c2)cn1
Target: Voltage-gated inwardly rectifying potassium channel KCNH2 (KCNH2, Homo sapiens, UniProt Q12809)
Sequence of UniProt Q12809 (whole entry, looked up): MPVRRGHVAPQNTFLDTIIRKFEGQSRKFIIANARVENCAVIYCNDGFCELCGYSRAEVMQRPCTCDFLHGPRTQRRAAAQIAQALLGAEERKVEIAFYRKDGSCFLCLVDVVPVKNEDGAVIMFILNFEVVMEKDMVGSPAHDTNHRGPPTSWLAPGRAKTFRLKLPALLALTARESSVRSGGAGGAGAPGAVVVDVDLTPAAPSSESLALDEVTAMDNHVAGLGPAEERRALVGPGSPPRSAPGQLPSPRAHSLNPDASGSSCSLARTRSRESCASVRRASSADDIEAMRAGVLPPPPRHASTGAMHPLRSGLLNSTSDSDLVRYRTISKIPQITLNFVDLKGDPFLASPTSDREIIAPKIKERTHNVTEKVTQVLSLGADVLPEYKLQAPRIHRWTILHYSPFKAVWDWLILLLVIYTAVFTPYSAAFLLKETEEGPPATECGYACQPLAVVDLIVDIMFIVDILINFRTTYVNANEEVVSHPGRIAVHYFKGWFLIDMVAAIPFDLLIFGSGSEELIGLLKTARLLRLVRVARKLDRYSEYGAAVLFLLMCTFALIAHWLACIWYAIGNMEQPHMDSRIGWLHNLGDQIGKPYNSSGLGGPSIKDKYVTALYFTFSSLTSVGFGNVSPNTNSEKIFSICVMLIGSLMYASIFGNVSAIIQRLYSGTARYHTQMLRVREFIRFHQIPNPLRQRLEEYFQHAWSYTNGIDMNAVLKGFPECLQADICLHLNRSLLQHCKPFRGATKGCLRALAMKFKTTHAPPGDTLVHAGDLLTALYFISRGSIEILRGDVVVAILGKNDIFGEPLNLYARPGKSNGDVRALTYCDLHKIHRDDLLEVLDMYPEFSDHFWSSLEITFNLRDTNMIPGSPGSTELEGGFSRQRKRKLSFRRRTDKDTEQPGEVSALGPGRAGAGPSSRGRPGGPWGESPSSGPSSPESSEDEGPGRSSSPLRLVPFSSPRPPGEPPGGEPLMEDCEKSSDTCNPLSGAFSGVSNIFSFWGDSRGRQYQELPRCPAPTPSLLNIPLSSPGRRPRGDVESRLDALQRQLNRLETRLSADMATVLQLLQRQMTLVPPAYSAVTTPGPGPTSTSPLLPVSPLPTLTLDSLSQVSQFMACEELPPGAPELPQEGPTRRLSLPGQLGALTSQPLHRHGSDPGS
tested at	mean inhibition [%]
1.00 µM	3.19
10.00 µM	18.9
3.00 µM	7.94
30.00 µM	43.4

Sample 3 — technique: KINOMEscan; setting: unit not given; reference: DMSO
Structure (SMILES): Ic1ccc(Nc2nc(NCCc3c[nH]c4ccccc34)nc(N3CCOCC3)n2)cc1
Target: 1-phosphatidylinositol 3-phosphate 5-kinase (PIKFYVE, Homo sapiens, UniProt Q9Y2I7)
Sequence of UniProt Q9Y2I7 (whole entry, looked up): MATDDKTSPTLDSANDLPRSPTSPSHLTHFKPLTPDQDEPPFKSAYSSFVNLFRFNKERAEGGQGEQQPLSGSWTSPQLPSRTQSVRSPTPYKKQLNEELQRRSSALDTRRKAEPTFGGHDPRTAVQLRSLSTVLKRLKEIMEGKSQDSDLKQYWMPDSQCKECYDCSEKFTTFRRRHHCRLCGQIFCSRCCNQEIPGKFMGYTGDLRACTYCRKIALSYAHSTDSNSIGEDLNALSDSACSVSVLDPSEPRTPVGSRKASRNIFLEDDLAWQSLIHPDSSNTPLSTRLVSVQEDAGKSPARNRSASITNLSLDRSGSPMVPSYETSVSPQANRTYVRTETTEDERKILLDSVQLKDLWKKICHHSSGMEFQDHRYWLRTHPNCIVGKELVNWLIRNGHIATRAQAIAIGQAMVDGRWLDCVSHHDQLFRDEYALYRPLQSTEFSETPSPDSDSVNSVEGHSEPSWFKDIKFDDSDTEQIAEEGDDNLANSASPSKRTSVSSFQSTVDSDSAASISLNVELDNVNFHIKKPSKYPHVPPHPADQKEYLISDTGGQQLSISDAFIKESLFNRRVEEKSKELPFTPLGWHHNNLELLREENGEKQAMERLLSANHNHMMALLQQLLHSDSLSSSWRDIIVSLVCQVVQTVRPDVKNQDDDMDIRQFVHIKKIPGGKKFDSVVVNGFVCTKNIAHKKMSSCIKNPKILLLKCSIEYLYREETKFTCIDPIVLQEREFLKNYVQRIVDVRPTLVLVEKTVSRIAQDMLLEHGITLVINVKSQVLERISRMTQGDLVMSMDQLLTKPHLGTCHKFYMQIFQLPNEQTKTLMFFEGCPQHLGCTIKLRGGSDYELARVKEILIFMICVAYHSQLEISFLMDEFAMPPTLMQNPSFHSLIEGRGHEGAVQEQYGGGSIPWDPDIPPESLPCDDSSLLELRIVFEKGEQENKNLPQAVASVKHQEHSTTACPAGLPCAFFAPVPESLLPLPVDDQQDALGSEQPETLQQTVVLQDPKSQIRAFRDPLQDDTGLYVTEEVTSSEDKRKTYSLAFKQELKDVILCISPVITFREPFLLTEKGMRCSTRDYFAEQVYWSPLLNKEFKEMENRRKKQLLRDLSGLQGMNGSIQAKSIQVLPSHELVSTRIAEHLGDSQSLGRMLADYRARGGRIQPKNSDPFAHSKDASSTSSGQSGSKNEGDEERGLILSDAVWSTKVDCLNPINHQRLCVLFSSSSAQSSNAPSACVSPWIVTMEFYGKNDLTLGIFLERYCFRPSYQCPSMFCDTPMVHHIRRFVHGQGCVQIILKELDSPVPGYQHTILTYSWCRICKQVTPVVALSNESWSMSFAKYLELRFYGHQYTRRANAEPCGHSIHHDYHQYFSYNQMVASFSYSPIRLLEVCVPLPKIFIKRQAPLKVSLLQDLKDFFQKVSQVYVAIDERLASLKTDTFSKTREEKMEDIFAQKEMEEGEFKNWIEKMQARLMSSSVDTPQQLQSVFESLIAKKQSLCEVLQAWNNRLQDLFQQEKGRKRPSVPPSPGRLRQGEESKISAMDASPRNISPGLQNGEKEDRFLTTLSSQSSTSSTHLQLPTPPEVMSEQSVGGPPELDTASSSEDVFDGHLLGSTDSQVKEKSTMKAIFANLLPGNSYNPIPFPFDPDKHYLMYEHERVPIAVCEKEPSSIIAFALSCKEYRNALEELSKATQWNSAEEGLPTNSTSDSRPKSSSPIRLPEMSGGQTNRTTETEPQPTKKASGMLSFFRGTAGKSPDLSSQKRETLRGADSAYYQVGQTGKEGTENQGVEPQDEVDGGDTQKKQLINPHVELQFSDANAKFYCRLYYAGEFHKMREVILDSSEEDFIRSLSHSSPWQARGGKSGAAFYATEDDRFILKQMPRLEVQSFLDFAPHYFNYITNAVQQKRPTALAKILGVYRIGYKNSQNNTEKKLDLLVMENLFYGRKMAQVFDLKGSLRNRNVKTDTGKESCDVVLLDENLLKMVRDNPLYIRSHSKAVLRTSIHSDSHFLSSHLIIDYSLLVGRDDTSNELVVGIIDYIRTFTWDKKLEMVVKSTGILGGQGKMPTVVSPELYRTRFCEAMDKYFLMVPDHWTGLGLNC
tested at	remaining binding
4.57 nM	0.747 and 0.758 and 0.599 and 0.576
41.2 nM	0.146 and 0.121 and 0.0896 and 0.211
3330 nM	0.0249 and 0.029 and 0.0318 and 0.0198
123 nM	0.059 and 0.0548 and 0.0482 and 0.0334
370 nM	0.0277 and 0.0357 and 0.0194 and 0.0705
0.508 nM	0.839 and 1.17 and 1.11 and 0.74

Sample 4 — tested at: 1 µM
SMILES: CC[C@@]1(c2cccc(C(F)(F)F)c2)C2=C(Nc3n[nH]cc31)[C@H](F)C(C)(C)CC2=O (single isomer, unassigned)
target	observed	technique	reference	remaining binding [%]
PDGFRA (Homo sapiens, UniProt P16234)	binding	competition with immobilised ligand	–	100
PRKCQ (Homo sapiens, UniProt Q04759)	binding	competition with immobilised ligand	–	80
ALK (Homo sapiens, UniProt Q9UM73, L1196M)	binding	competition with immobilised ligand	–	63
GRK2 (Homo sapiens, UniProt P25098)	binding	competition with immobilised ligand	–	100
Ribosomal protein S6 kinase alpha-4, C-terminal kinase domain (RPS6KA4, Homo sapiens, UniProt O75676)	binding	competition with immobilised ligand	–	100
MAK (Homo sapiens, UniProt P20794)	binding	competition with immobilised ligand	–	49
RIPK1 (Homo sapiens, UniProt Q13546)	kinase binding	KINOMEscan	DMSO control	100
TGFBR1 (Homo sapiens, UniProt P36897)	kinase binding	KINOMEscan	DMSO control	80
